Results collected from several papers.
Each numbered part is a random draw from the data of one study; scales do not carry over between parts.
Sequence of UniProt Q9UQM7 (whole entry, looked up): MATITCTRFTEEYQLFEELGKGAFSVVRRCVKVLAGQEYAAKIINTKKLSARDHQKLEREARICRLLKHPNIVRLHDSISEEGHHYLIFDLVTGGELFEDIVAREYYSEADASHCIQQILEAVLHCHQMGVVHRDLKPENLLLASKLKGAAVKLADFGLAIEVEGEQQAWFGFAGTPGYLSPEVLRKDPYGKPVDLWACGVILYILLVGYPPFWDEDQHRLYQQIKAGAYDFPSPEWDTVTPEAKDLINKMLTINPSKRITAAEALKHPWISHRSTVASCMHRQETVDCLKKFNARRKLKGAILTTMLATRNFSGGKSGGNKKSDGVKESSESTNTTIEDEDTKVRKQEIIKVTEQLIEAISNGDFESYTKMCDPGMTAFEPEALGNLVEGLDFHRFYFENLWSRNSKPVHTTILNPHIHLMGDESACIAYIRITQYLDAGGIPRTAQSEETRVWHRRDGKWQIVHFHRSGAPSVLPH

Block 1 — read-out: peptide-MHC binding; form: peptide; concentration: concentration not given
Target: HLA class I histocompatibility antigen, A alpha chain, allele A*80:01 (Homo sapiens, UniProt P04439)
Under binding, `QLSLRMLSL` is recorded as “inactive”.
`LSDNLSLVY`: binding “inactive”.
`MSDIFASEV` — result for binding: “inactive”.
`LVTARQKLK`: binding “inactive”.
Under binding, `LEGLADAIW` is recorded as “inactive”.
`FLYDRLAST` — result for binding: “inactive”.
Under binding, `VLIRRCHYL` is recorded as “inactive”.
`TTILGLLPM` — result for binding: “inactive”.

Block 2 — target: UBE2D4 UBC core domain (UniProt Q9Y2X8); method: yeast two-hybrid; matrix: yeast; notes: mostly zero background; reference: not given; reading: higher = stronger interaction
B1: RNF38 RING domain (UniProt Q9H0F5); chain PNNHQSEQTLCVVCMCDFESRQLLRVLPCNHEFHAKCVDKWLKANRTCPICRADASEVHRDS
B2: TRIM40 RING domain (UniProt Q6P9F5); chain LQKDNQEEGVCPICQESLKEAVSTNCGHLFCRVCLTQHVEKASASGVFCCPLCRKPCSEEVLG
B3: NEURL1 RING domain (UniProt O76050); chain VTPGLGQWSDECTICYEHAVDTVIYTCGHMCLCYACGLRLKKALHACCPICRRPIKDIIKT
Residues (chain): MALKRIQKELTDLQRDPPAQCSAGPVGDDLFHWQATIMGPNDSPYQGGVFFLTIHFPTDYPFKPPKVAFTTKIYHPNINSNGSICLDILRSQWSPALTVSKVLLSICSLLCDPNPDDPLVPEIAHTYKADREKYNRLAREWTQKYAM
For `VEPSEENSKDCVVCQNGTVNWVLLPCRHTCLCDGCVKYFQQCPMCRQFVQESFALC (CGRRF1 RING domain (UniProt Q99675))`, “lacZ reporter activity” read 0.
`GAAPGPEAAECLVCSELALLVLFSPCQHRTVCEECARRMKKCIRCQVVVSKKLRPD (MIB2 RING domain (UniProt Q96AX9))` — result for “lacZ reporter activity”: 0.
For `DHGAVGQEMCCPICCSEYVKGEVATELPCHHYFHKPCVSIWLQKSGTCPVCRCMFPPPL (PJA1 RING domain (UniProt Q8NG27))`, “lacZ reporter activity” read 0.
For `PAELEVQASECVVCLEREAQMIFLNCGHVCCCQQCCQPLRTCPLCRQDIAQRLRIY (LRSAM1 RING domain (UniProt Q6UWE0))`, “lacZ reporter activity” read 0.
`B1 (RNF38 RING domain)`: “lacZ reporter activity” 0.
`B2 (TRIM40 RING domain)` — result for “lacZ reporter activity”: 0.
For `B3 (NEURL1 RING domain)`, “lacZ reporter activity” read 0.
`FQGDVDEDLICPICSGVLEEPVQAPHCEHAFCNACITQWFSQQQTCPVDRSVVTVAHLRP (RNF41 RING domain (UniProt Q9H4P4))`: “lacZ reporter activity” 0.

Mixed results
With CC1CN(S(=O)(=O)N2CC=C(c3c[nH]c4ncccc34)CC2)CC(C)O1 (stereo not shown) the inhibition was -10% (vesicular stomatitis virus glycoprotein; viral entry, VSVΔG-G pseudovirus; 10 µM).
NC(=O)C[S+]([O-])C(c1ccccc1)c1ccccc1 (stereo not shown) gave a viability of 90.2% (A-375; 100 µM, 18 h).
CC[C@H]1CN2CC[C@@]3(C(=O)Nc4ccccc43)[C@@H]2C[C@@H]1/C(=C\OC)C(=O)OC gave an inhibition of -6% (Calcium/calmodulin-dependent protein kinase type II subunit alpha (CAMK2A, Homo sapiens, UniProt Q9UQM7); enzyme activity, inhibitor; 10 µM).
